Assay results collected from several papers.
Protocols differ between the studies behind these lines. “And” joins repeats or separate records; there may be more than shown.
Target: Dual specificity tyrosine-phosphorylation-regulated kinase 1A (DYRK1A, Homo sapiens, UniProt Q13627)

| Structure (SMILES) | test | setting | how to read | measurement | value |
| --- | --- | --- | --- | --- | --- |
| Cc1cnc2nc1Nc1cccc(c1)COC/C=C/COCc1cc(ccc1OCCN1CCOCC1)N2 | binding | 0.1 µM | – | remaining binding | 65% |
| O=C(Cc1ccc(OCc2ccccc2)cc1)NC1(C(=O)O)CCN(C(=O)c2ccc(-c3cccc(Cl)c3)cc2)CC1 | enzyme activity, inhibitor | 10 µM | – | activity vs control | 94% |
| Cc1cccc(-c2ccc3nc(NC(=O)C4CCCCC4)nn3c2)c1 | enzyme activity, Dundee kinase panel | 10 µM | – | remaining activity | 10% |
| COCC12C(=O)NC3C4(C(OC)CC1O)C1CC5(O)C(OC)C(O)C(OC(C)=O)(C1C5OC(=O)c1ccccc1)C3(O)C(OC)C24 (stereo not drawn) | kinase activity, inhibitor, ProQinase kinase profiling | 25 µM | relative to: control | remaining activity | 106% and 113% |
| CNC1C[S+]2CC[S+]3CC[S+](C1)[Ru-4]321([N]=C=S)[n]2c3ccc(OC)cc3c3c4c(c5cc(F)c[n+]1c5c32)C(=O)NC4=O (stereo not drawn) | KinomeScan | 0.1 µM | relative to: untreated | remaining binding | 85% |
| C=CC(=O)N1Cc2nc(-c3cc(-c4cc(Cl)cnc4Cl)c(F)cc3F)n(-c3ccncn3)c2C1 | cell-free assay | 1 µM | – | inhibition | 7.2% |
| COc1cc(Nc2nccc(-c3cnn4nc(OC)ccc34)n2)cc(C(F)(F)F)c1 | binding, competition with immobilised ligand | 1 µM | – | remaining binding | 68% |
| CCN1CCN(Cc2ccc(C(=O)Nc3ccc(C)c(NCc4cnc5[nH]ccc5c4OC)c3)cc2C(F)(F)F)CC1 | binding, competition with immobilised ligand | 1 µM | – | remaining binding | 74% |
| Nc1ncc(-c2cc(-c3cnn(CC(F)(F)F)c3)ncc2F)nc1C(=O)NC1CNCC(F)C1 (stereo not drawn) | enzyme activity | 1 µM | relative to: DMSO control | remaining activity | 82% |
| CNC(=O)C1CCN(c2cc(C)c(F)cc2NC(=O)c2ccc(-c3cc(O)ccc3C)c(C)c2)CC1 | binding, competition with immobilised ligand | 1 µM | – | remaining binding | 79% |
| c1ccc2c(Nc3cc(C4CCC4)[nH]n3)nc(Nc3ccc4nc[nH]c4c3)nc2c1 | enzyme activity, inhibitor | 0.25 µM | – | remaining activity | 1% |
| CCn1cc(C(=O)O)c(=O)c2c(N)c(F)c(NC3CCCCC3)cc21 | kinase activity | 0.1 µM, added: ATP at Km | – | inhibition | 13.3% |
| NC(=O)C[C@H]1CCc2sc3ncnc(O[C@H]4CC[C@H](N5CCOCC5)CC4)c3c21 | enzyme activity, inhibitor | 10 µM | – | inhibition | 36% |
| Cc1ccc(-c2c(/C=C(\C#N)C(=O)NC(C)C)n(CCCO)c3ncnc(N)c23)cc1 | cell-free assay, competition with immobilised ligand | 1 µM | – | remaining binding | 100% |
| Cc1ccc(C)c(-c2ccc3nc(NC(=O)C4CCCCC4)nn3c2)c1 | enzyme activity, Dundee kinase panel | 10 µM | – | remaining activity | 15% |
| C=CC(=O)Nc1cccc(-c2cnc3[nH]cc(C(=O)NC(C)(C)C)c3n2)c1 | enzyme activity, inhibitor | 0.1 µM | – | inhibition | 10% |
| Cc1cccc(O[C@H]2CCC[C@@H](C(C)CNCc3ccncc3)C2)c1 (relative stereo) | cell-free assay | 10 µM | – | inhibition | -2% |
| CCn1c(=O)c(=O)n(CC)c2ccccc21 | enzyme activity, inhibitor, ADP detection | 10 µM | – | inhibition | 92.5% |

Excerpt of the above:
| Structure (SMILES) | test | setting | how to read | measurement | value |
| --- | --- | --- | --- | --- | --- |
| COCC12C(=O)NC3C4(C(OC)CC1O)C1CC5(O)C(OC)C(O)C(OC(C)=O)(C1C5OC(=O)c1ccccc1)C3(O)C(OC)C24 (stereo not drawn) | kinase activity, inhibitor, ProQinase kinase profiling | 25 µM | relative to: control | remaining activity | 106% and 113% |
| CNC1C[S+]2CC[S+]3CC[S+](C1)[Ru-4]321([N]=C=S)[n]2c3ccc(OC)cc3c3c4c(c5cc(F)c[n+]1c5c32)C(=O)NC4=O (stereo not drawn) | KinomeScan | 0.1 µM | relative to: untreated | remaining binding | 85% |
